Published values collected from several papers.
Protocols differ between the studies behind these lines. ± marks the error that the study gave.
Cell line: human cells

| SMILES | test | conditions | CC50 |
| --- | --- | --- | --- |
| CO[C@H]1/C=C/O[C@@]2(C)Oc3c(C)c(O)c4c(O)c(c(/C=N/N5CCN(C6CCCC6)CC5)c(O)c4c3C2=O)NC(=O)/C(C)=C\C=C\[C@H](C)[C@H](O)[C@@H](C)[C@@H](O)[C@@H](C)[C@H](OC(C)=O)[C@@H]1C | – | – | 138 µM |
| CCCCCCCCCCCCCCCCOCCCOP(=O)(O)CO[C@H](CO)Cn1ccc(N)nc1=O | – | 3 (unit not given) | 7.42 ± 2.58 µM |
| O=C(Nc1ccc(F)cc1F)C(NC(=S)Nc1cc(C(F)(F)F)cc(C(F)(F)F)c1)c1ccccc1 (stereo not shown) | – | – | 9.76 µM |
| O=C(NN1C(=O)C2C3C=CC(C4CC34)C2C1=O)c1ccc(C(F)(F)F)cc1 (stereo not shown) | – | 3 (unit not given) | > 106 µM |
| CCCCCCNC(=O)n1cc(F)c(=O)[nH]c1=O | cytotoxicity | 48 (unit not given) | 4 µM |
| N#Cc1c(Nc2ccc(F)cc2)n[nH]c1NS(=O)(=O)c1ccc2ccccc2c1 | – | – | 7.7 µM |
| O=c1sn(-c2cccc3ccccc23)c(=O)n1Cc1ccccc1 | cytotoxicity | 48 (unit not given) | 35 µM |
| CCCCCCCCCCCCCCCC[n+]1ccn(Cc2ccccc2)c1C | – | – | 5.2 µM |
| CC(C)=CC[C@@H](O)C1=CC(=O)c2c(O)ccc(O)c2C1=O | cytotoxicity | 48 (unit not given) | 0.7 µM |
| CNC(=O)c1cc(Oc2ccc3nc(N[C@@H]4CCCC[C@H]4O)sc3c2)ccn1 | – | – | > 20 µM |

For quick reference, copied from above:
| SMILES | test | conditions | CC50 |
| --- | --- | --- | --- |
| CCCCCCCCCCCCCCCC[n+]1ccn(Cc2ccccc2)c1C | – | – | 5.2 µM |
